{"data": "Measurements of several laboratories", "ELANE": "Neutrophil elastase (ELANE, Homo sapiens, UniProt P08246)", "F12": "Coagulation factor XII (F12, Homo sapiens, UniProt P00748)", "USP14": "Ubiquitin carboxyl-terminal hydrolase 14 (USP14, Homo sapiens, UniProt P54578)", "Rac GTPase-activating protein 1": "Rac GTPase-activating protein 1 (Homo sapiens, UniProt Q9H0H5)", "GABBR1": "Gamma-aminobutyric acid type B receptor subunit 1 (GABBR1, Homo sapiens, UniProt Q9UBS5)", "note": "± marks the error that the study gave."}
{"SMILES": "Cn1ccc2cc(-n3c(=O)[nH]c4sc5c(c4c3=O)CCCC5)ccc21", "target": "Sigma non-opioid intracellular receptor 1 (SIGMAR1, Homo sapiens, UniProt Q99720)", "assay": "cell-free assay, radioligand", "conditions": "10 µM", "inhibition": "-11%"}
{"SMILES": "Cc1ccc(CNC(=O)[C@H](CCc2ccccc2)NC(=O)[C@H](CC(=O)NCC(C)(C)C)NC(=O)CCc2cccc(F)c2)cc1", "target": "ELANE", "assay": "enzyme activity, inhibitor", "conditions": "100 µM", "inhibition": "-5%"}
{"SMILES": "O=C1c2sc(-c3ccc(N4CCC(CO)CC4)nc3F)nc2CCN1c1cccnc1", "target": "5-hydroxytryptamine receptor 7 (HTR7, Homo sapiens, UniProt P34969)", "assay": "ligand displacement, radioligand", "conditions": "1 µM", "inhibition": "0%"}
{"SMILES": "Cc1ccc(CN(C)C(=O)C(CCc2ccccc2)NC(=O)C(NC(=O)c2ccc(OCc3ccccc3)cc2)C(C)O)cc1 (stereo not drawn)", "target": "F12", "assay": "enzyme activity, inhibitor", "conditions": "100 µM", "inhibition": "31%"}
{"SMILES": "O=C1C=CC(=O)C(Sc2nnnn2-c2ccccc2)=C1", "target": "USP14", "assay": "enzyme activity, inhibitor", "conditions": "17 µM", "inhibition": "39%"}
{"SMILES": "Cc1cc(C)cc(COc2cc3c(cc2OCc2cc(C)cc(C)c2)[C@@H]2C[C@](O)(Cc4cn(Cc5ccc(F)cc5)nn4)C[C@H](C)N2CC3)c1 (relative stereo)", "target": "Rab GDP dissociation inhibitor beta, with Rab1A (Homo sapiens, UniProt P50395)", "assay": "GDI2-Rab1A interaction, NanoLuc complementation", "conditions": "6.25 µM", "inhibition": "86.6%"}
{"SMILES": "CC(C)(C)CNC(=O)C[C@H](NC(=O)CCc1ccccc1)C(=O)N[C@@H](Cc1cccnc1)C(=O)NCc1ccccc1Cl", "target": "F12", "assay": "enzyme activity, inhibitor", "conditions": "100 µM", "inhibition": "33%"}
{"SMILES": "CCOC(=O)C(C#N)C1(O)C(=O)c2ccccc2C1=O (stereo not drawn)", "target": "USP14", "assay": "enzyme activity, inhibitor", "conditions": "17 µM", "inhibition": "43%"}
{"SMILES": "N=C(N)NCCCC(NC(=O)C(CC(=O)NO)Cc1ccc2ccccc2c1)C(=O)NC(Cc1c[nH]c2ccccc12)C(=O)NC(CCC(=O)O)C(N)=O (stereo not drawn)", "target": "Cathepsin D (CTSD, Homo sapiens, UniProt P07339)", "conditions": "1 µM", "inhibition": "-2%"}
{"SMILES": "CCOC(=O)C1(C)C(Br)=C(Cl)C(=O)N1c1ccc(F)cc1 (stereo not drawn)", "target": "Rac GTPase-activating protein 1", "assay": "GAP activity, malachite green phosphate", "conditions": "concentration not given, orthogonal retest", "inhibition": "66.7%"}
{"SMILES": "COc1cc(N=Nc2ccc(C)cc2[N+](=O)[O-])c(C)cc1N=Nc1ccc(N(C)CCCN)cc1", "target": "Histone acetyltransferase RTT109, with Vps75 (Saccharomyces cerevisiae, UniProt Q07794)", "assay": "H3K56 and H3K27 acetylation, slot blot", "conditions": "concentration not given", "inhibition": "no inhibition"}
{"SMILES": "CN(Cc1ccc(/C=C/C(=O)NO)cc1)CC12CC3CC(CC(C3)C1)C2", "target": "human AT2 receptor", "assay": "radioligand binding", "conditions": "0.05 µM", "inhibition": "45%"}
{"SMILES": "CCc1nc2ccc(Cl)cn2c1C(=O)NCc1ccc2oc(-c3ccc(OC(F)(F)F)cc3)nc2c1", "target": "Cytochrome b, in bc1 complex (COB, Candida albicans, UniProt P0C8L0)", "assay": "cytochrome c reduction", "conditions": "10 and 1 µM", "inhibition": "no inhibition"}
{"SMILES": "COc1ncc2nc(C)n(Cc3ncc(S(N)(=O)=O)cc3F)c2c1-c1ccccc1", "target": "Glutamate NMDA receptor; GRIN1/GRIN2B (GRIN1/GRIN2B, Homo sapiens, UniProt Q05586+Q13224)", "assay": "antagonist, cell-based", "conditions": "10 µM", "inhibition": "-1.74%"}
{"SMILES": "Cc1ccc(-c2nn(-c3ccc(S(C)(=O)=O)cc3)cc2/C=N/N=C2/NC(=O)CS2)cc1", "target": "Epidermal growth factor receptor (EGFR, Homo sapiens, UniProt P00533, L858R)", "assay": "kinase activity, inhibitor", "conditions": "0.1 µM", "inhibition": "47.9%"}
{"SMILES": "Clc1ccc(NCc2ccc(Br)cc2)cc1", "target": "Rac GTPase-activating protein 1", "assay": "GAP activity, malachite green phosphate", "conditions": "concentration not given, orthogonal retest", "inhibition": "74.8%"}
{"SMILES": "C[Si]1(C[C@H](CN)CC(=O)O)CCCC1", "target": "Pituitary adenylate cyclase-activating polypeptide type I receptor (ADCYAP1R1, Homo sapiens, UniProt P41586)", "assay": "ligand displacement, radioligand", "conditions": "70 µM", "inhibition": "1%"}
{"SMILES": "COc1ccc(S(=O)(=O)N2CCc3ccccc3C2)cc1N1CCN(C(=O)c2ccc(F)cc2C(F)(F)F)CC1", "target": "Voltage-dependent L-type calcium channel subunit alpha-1C (Cacna1c, Rattus norvegicus, UniProt P22002)", "assay": "ligand displacement, radioligand", "conditions": "1 µM", "inhibition": "17%"}
{"SMILES": "COCC(=O)N1CCc2cc(-c3csc(NC(=O)c4cc(OC)cc(OC)c4)n3)ccc21", "target": "GABBR1", "assay": "binding, radioligand binding", "system": "human", "conditions": "10 µM", "inhibition": "-12%"}
{"SMILES": "C=CC(=O)N1Cc2nc(-c3cc(-c4cc(Cl)cnc4Cl)c(F)cc3F)n(-c3ccncn3)c2C1", "target": "Serine/threonine-protein kinase greatwall (MASTL, Homo sapiens, UniProt Q96GX5)", "assay": "cell-free assay, inhibitor", "conditions": "1 µM", "inhibition": "4.6%"}
{"SMILES": "O=c1ccsn1Cc1ccccc1", "target": "Rac GTPase-activating protein 1", "assay": "enzyme activity, inhibitor, ADP detection", "conditions": "10 µM", "inhibition": "91.9%"}
{"SMILES": "C[Si](C)(C)C[C@@H](CN)CC(=O)O", "target": "GABBR1", "assay": "binding, radioligand binding", "conditions": "75 µM, added: [3H]CGP-54626", "inhibition": "-2%"}
{"SMILES": "CC1Cc2ccccc2N1C(=O)CN1CCN(c2ccccc2)CC1 (stereo not drawn)", "target": "5-hydroxytryptamine receptor 2B (HTR2B, Homo sapiens, UniProt P41595)", "assay": "radioligand binding", "conditions": "concentration not given, added: [3H]LSD", "inhibition": "80%"}
{"SMILES": "O=C(O)CN1C(=O)Cc2ccccc2C1=O", "target": "USP14", "assay": "enzyme activity, inhibitor", "conditions": "17 µM", "inhibition": "18%"}
{"SMILES": "CC(=O)c1ccc2c3c(cccc13)NC(C)=N2", "target": "Rac GTPase-activating protein 1", "assay": "GAP activity, malachite green phosphate", "conditions": "concentration not given, orthogonal retest", "inhibition": "40.2%"}
{"SMILES": "COc1ccc(C#CC2=C[C@H]3C[C@@]4(OC(=O)C=C24)[C@H]2CC[C@H](C(OC)OC)N32)cc1", "target": "Prostaglandin G/H synthase 1 (PTGS1, Homo sapiens, UniProt P23219)", "assay": "enzyme activity, inhibitor", "conditions": "10 µM", "inhibition": "2%"}
{"SMILES": "CC(C)NC(=O)[C@H](CCc1ccccc1)NC(=O)[C@H](CC(=O)NCC(C)(C)C)NC(=O)CCc1ccccc1", "target": "ELANE", "assay": "enzyme activity, inhibitor", "conditions": "100 µM", "inhibition": "-10%"}
{"SMILES": "CN1CCN(Cc2ccc(-c3ccc(CO[C@H]4CCC[C@@H]4NC(=O)c4cc(-c5cnn(C)c5)cnc4N)cc3)cc2)CC1", "target": "Phosphatidylinositol 4-kinase type 2-alpha (PI4K2A, Homo sapiens, UniProt Q9BTU6)", "assay": "enzyme activity, inhibitor", "conditions": "0.1 µM", "inhibition": "4%"}
{"SMILES": "O=C(O)C1Nc2ccc(Br)cc2C2C=CCC12 (stereo not drawn)", "target": "Rac GTPase-activating protein 1", "assay": "GAP activity, malachite green phosphate", "conditions": "concentration not given, orthogonal retest", "inhibition": "63.2%"}
{"SMILES": "CCn1cc(C(=O)O)c(=O)c2c(N)c(F)c(NC3CCCCC3)cc21", "target": "5'-AMP-activated protein kinase catalytic subunit alpha-1, with beta2, gamma2 (PRKAA1, Homo sapiens, UniProt Q13131)", "assay": "kinase activity", "conditions": "0.1 µM, added: ATP at Km", "inhibition": "-1%"}
{"SMILES": "CCOC(=O)N1CCN(C(=S)Nc2ccc3nsnc3c2)CC1", "target": "USP14", "assay": "enzyme activity, inhibitor", "conditions": "17 µM", "inhibition": "66%"}
{"SMILES": "O=C(CSc1nnnn1-c1ccccc1)Nc1nsc(-c2ccccc2)n1", "target": "srtA (Staphylococcus aureus, UniProt Q2FV99)", "assay": "enzyme activity, inhibitor", "conditions": "200 µM", "inhibition": "54.2%"}
{"SMILES": "Cc1cc(O)c2c(c1)C(=O)c1cc(O)c(O)c(O)c1C2=O", "target": "Vasopressin V1a receptor (AVPR1A, Homo sapiens, UniProt P37288)", "assay": "calcium mobilization, antagonist, fluorimetry", "conditions": "50 µM, added: 10 nM vasopressin", "inhibition": "61.1 ± 0.85%"}
{"SMILES": "C/C=C/C(=O)Nc1ccc2nc(NCCCCCN(C)C)nc(NCCCCCCN(C)C)c2c1", "target": "Histone-lysine N-methyltransferase SMYD3 (SMYD3, Homo sapiens, UniProt Q9H7B4)", "assay": "enzyme activity, inhibitor, radiometric", "conditions": "50 µM", "inhibition": "2%"}
{"SMILES": "Cc1ccc(C(C2=C(O)CC(C)(C)CC2=O)C2=C(O)CC(C)(C)CC2=O)o1", "target": "Rac GTPase-activating protein 1", "assay": "GAP activity, malachite green phosphate", "conditions": "concentration not given, orthogonal retest", "inhibition": "74.4%"}
{"SMILES": "O=C1C2=C(C(=O)c3ccccc31)C(c1ccccc1O)c1sc(=O)[nH]c1S2 (stereo not drawn)", "target": "USP14", "assay": "enzyme activity, inhibitor", "conditions": "17 µM", "inhibition": "62%"}
{"SMILES": "COc1cc(-c2cn(C)c(=O)c3cnccc23)cc(OC)c1CN(C)C", "target": "Histone acetyltransferase p300 (EP300, Homo sapiens, UniProt Q09472)", "conditions": "1 µM", "inhibition": "1.07%"}
{"SMILES": "O=C1c2ccccc2C(=O)c2c1oc1c3c(ccc21)OCN(C1CCCC1)C3", "target": "USP14", "assay": "enzyme activity, inhibitor", "conditions": "17 µM", "inhibition": "43%"}
{"SMILES": "C[C@H](NC(=O)[C@H](CC(=O)NCC(C)(C)C)NC(=O)C(=O)c1c[nH]c2ccccc12)C(=O)NCc1ccc(F)cc1F", "target": "ELANE", "assay": "enzyme activity, inhibitor", "conditions": "100 µM", "inhibition": "-4%"}
{"SMILES": "Nc1nonc1C(=O)NN=c1c(=O)c2ccccc2c1=O", "target": "USP14", "assay": "enzyme activity, inhibitor", "conditions": "17 µM", "inhibition": "59%"}
{"SMILES": "Cc1[nH]nc2c1N=C(c1ccccc1Cl)c1cnc(N3CCOCC3)cc1N2", "target": "GABBR1", "conditions": "10 µM, human off-target panel", "inhibition": "0%"}
{"SMILES": "Cc1ccc(C)n1-c1ccc(OCC(=O)O)cc1", "target": "Rac GTPase-activating protein 1", "assay": "enzyme activity, inhibitor, ADP detection", "conditions": "20 µM", "inhibition": "51.4%"}
{"SMILES": "CC(=O)C12NC(C)(C)CC1(C)C(=O)C1=C2c2c(c3c4n2C(C)(C)CC2=C4C4(CC(C)(C)NC(C)(C4)C2=O)CC3(C)C)C(=O)C(C)(C)N1 (single isomer, unassigned; (-))", "target": "Neuronal acetylcholine receptor; alpha3/beta4 (Homo sapiens, UniProt P30926+P32297)", "assay": "ion current, patch clamp", "system": "HEK-293T", "conditions": "10 µM", "inhibition": "29.6%"}
{"SMILES": "O=C(Nc1ccc(N2CCOCC2)c2nonc12)c1cc(-c2cccnc2)nc2ccc(Cl)cc12", "target": "USP14", "assay": "enzyme activity, inhibitor", "conditions": "17 µM", "inhibition": "69%"}
{"SMILES": "Nc1ccc2c(c1)OC1(CCCCC1)O2", "target": "Rac GTPase-activating protein 1", "assay": "enzyme activity, inhibitor, ADP detection", "conditions": "10 µM", "inhibition": "82.6%"}
{"note": "Some of these lines once more:"}
{"SMILES": "O=C1c2ccccc2C(=O)c2c1oc1c3c(ccc21)OCN(C1CCCC1)C3", "target": "USP14", "assay": "enzyme activity, inhibitor", "conditions": "17 µM", "inhibition": "43%"}
{"SMILES": "CCOC(=O)N1CCN(C(=S)Nc2ccc3nsnc3c2)CC1", "target": "USP14", "assay": "enzyme activity, inhibitor", "conditions": "17 µM", "inhibition": "66%"}
{"SMILES": "O=C1c2sc(-c3ccc(N4CCC(CO)CC4)nc3F)nc2CCN1c1cccnc1", "target": "5-hydroxytryptamine receptor 7 (HTR7, Homo sapiens, UniProt P34969)", "assay": "ligand displacement, radioligand", "conditions": "1 µM", "inhibition": "0%"}
{"SMILES": "O=C1C=CC(=O)C(Sc2nnnn2-c2ccccc2)=C1", "target": "USP14", "assay": "enzyme activity, inhibitor", "conditions": "17 µM", "inhibition": "39%"}
{"SMILES": "COc1ccc(S(=O)(=O)N2CCc3ccccc3C2)cc1N1CCN(C(=O)c2ccc(F)cc2C(F)(F)F)CC1", "target": "Voltage-dependent L-type calcium channel subunit alpha-1C (Cacna1c, Rattus norvegicus, UniProt P22002)", "assay": "ligand displacement, radioligand", "conditions": "1 µM", "inhibition": "17%"}
